Measurements of several laboratories.
Numbered parts are unrelated; each lists some results of a single study.
Chain of UniProt Q92985 (whole entry, unmodified, looked up): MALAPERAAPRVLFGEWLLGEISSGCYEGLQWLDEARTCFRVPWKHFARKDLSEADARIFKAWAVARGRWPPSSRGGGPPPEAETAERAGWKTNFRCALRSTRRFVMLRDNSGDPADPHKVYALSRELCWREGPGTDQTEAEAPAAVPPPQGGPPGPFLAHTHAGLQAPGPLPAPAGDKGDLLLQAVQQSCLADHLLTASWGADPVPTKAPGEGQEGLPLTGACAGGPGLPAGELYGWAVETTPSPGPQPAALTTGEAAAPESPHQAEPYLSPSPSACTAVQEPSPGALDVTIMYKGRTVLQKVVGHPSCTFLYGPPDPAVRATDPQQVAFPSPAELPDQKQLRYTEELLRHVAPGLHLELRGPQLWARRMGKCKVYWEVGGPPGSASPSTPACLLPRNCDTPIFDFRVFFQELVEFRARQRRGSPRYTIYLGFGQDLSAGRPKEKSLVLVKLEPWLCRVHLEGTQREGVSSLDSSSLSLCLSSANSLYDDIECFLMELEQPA

Sample 1 — method: universal PBM; form: double-stranded DNA, one strand shown; medium: in vitro; tested at: 600 nM; reading: higher = stronger binding
Target: Sal-like protein 4, full length isoform A (SALL4, Homo sapiens, UniProt Q9UJQ4, residues 1-1053)
Chain of UniProt Q9UJQ4 (whole entry, looked up): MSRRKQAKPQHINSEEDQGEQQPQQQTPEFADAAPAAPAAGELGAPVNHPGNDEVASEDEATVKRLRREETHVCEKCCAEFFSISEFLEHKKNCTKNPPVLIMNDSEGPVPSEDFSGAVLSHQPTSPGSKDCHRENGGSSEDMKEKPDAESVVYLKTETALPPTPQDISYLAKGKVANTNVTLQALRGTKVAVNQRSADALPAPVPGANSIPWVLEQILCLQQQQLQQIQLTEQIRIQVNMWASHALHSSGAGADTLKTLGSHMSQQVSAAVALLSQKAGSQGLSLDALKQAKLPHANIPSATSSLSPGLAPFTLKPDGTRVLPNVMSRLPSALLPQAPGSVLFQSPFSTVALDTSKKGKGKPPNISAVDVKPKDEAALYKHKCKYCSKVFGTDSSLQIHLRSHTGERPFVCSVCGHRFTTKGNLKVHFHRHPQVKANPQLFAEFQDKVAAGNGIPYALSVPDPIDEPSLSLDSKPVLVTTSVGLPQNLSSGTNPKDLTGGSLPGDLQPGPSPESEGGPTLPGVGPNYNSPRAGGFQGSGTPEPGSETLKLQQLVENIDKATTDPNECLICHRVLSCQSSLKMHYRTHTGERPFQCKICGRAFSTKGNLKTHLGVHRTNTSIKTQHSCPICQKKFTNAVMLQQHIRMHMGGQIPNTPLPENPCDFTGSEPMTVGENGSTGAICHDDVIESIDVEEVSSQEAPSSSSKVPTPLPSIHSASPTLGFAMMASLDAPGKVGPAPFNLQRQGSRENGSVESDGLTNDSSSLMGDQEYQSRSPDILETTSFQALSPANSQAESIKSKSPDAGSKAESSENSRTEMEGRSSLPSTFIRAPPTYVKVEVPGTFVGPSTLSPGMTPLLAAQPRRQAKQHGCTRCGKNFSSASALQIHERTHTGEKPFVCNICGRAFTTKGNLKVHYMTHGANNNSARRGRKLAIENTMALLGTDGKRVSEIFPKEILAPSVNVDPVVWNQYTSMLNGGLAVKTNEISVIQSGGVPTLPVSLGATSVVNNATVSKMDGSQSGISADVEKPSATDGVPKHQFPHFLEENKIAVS
Setting: 8-mer, flanks averaged, mean of replicates
Sequence | E-score
AGGGTTTC | -0.0927
CGAAATGC | -0.0106
TACTTTCA | 0.235

Sample 2 — method: aptamer microarray, sandwich; form: DNA with 2'F-ANA; medium: in vitro; tested at: 200 nM; together with: Cy3 exosite-II aptamer, 400 nM; reading: higher = stronger binding
Target: Prothrombin, mature alpha-thrombin (F2, Homo sapiens, UniProt P00734)
Setting: whole 15-mer aptamer, many near background
Sequence | mean fluorescence intensity [a.u.]
GGTTGGTGTGGTTGG (2'F-ANA at 1 2 4 6 8 10 12 13 15) | 52.9
GGTTGGTGTGGTTGG (2'F-ANA at 3 4 5 6 8 9 10 11 14 15) | 49
GGTTGGTGTGGTTGG (2'F-ANA at 1 2 5 6 7 8 9 11 13 15) | 51.5

Other studies, line by line
Molecule | target | test | system | conditions | scale | quantity | value
GCCTAGCACGACGGTATCGACAATGGGGACGTGCTAGTCTTGATTCGCTTGACGCTGCTG | Interferon regulatory factor 5, full length, phosphomimetic (IRF5, Homo sapiens, UniProt Q13568-2, residues 1-514, K96S/S451D/S453D/S456D/S462D) | protein-binding microarray | double-stranded DNA, one strand shown, in vitro | 250 nM, 60-bp whole probe, together with: salmon DNA 0.4 mg/ml | reference: random background probes, higher = stronger binding | log fluorescence | 1.84 z-score
PhoQ, residues 284 288 289 292 302 303 TNSAEL | PhoP, residues 12 14 15 18 19 DLLYY (Escherichia coli, UniProt P23836) | Sort-seq, item: YFP reporter | E. coli | PhoQ-PhoP variant library, together with: 10 µM Mg2+ | reference: high Mg2+ state, higher = stronger signaling | fold induction | 2.58
GCCTAGCACTTAGGACTGGAGACTGGGTTAGTGCTAGTCTTGATTCGCTTGACGCTGCTG | Interferon regulatory factor 7, full length, phosphomimetic (IRF7, Homo sapiens, UniProt Q92985, residues 1-503, S101K/S471D/S472D/S475D/S476D/S477D/S483D/S484D/S487D) | protein-binding microarray | double-stranded DNA, one strand shown, in vitro | 250 nM, 60-bp whole probe, together with: salmon DNA 0.4 mg/ml | reference: random background probes, higher = stronger binding | log fluorescence | -0.659 z-score

Some of these lines once more (sample 1):
Sequence | E-score
TACTTTCA | 0.235
